Published values from different studies.
Each line is one published result; not all experiments were run side by side. ± marks the error that the study gave. In brackets after ≈: the same amount, converted by molar mass.
Organism: Mycobacterium tuberculosis

Cc1ccc(OCCc2cc(F)cc(F)c2)c(C(N)=O)c1  IC90 (growth; H37Rv-LP; 120 h): 1300 ± 420 nM
COc1ccc(-c2cc(C(F)(F)F)c3c(N)c(C(=O)NC(C)c4ccccc4)sc3n2)cn1 (centres unmarked)  IC50 (growth inhibition; H37Rv LepB under-expressing): 290 ± 90 nM
CCCCCCC#Cc1cncc(-c2nnc(SCc3cc([N+](=O)[O-])cc([N+](=O)[O-])c3)n2C)c1  intracellular bacterial survival (macrophages, murine, bone marrow-derived, Erdman; concentration not given): decreased
Cc1cscc1-c1ccc(OCCc2cccc(F)c2)c(C(N)=O)c1  IC90 (growth; H37Rv-LP; 120 h): 1400 ± 1100 nM
O=c1c2cc(Cl)ccc2[nH]c(=S)n1Cc1ccc(-c2nnn[nH]2)nc1  MIC90 (PptT conditional knockdown): 3.6 µM (≈ 1.34 µg/mL)
COc1ccc(-c2cc(C(F)(F)F)c3c(N)c(C(=O)N4C5CCCC4COC5)sc3n2)cc1  IC50 (growth inhibition; H37Rv LepB under-expressing): > 100000 nM
CC(=O)OCc1cc2[nH]c(=S)n(Cc3cccnc3)c(=O)c2cc1Cl  MIC90 (PptT conditional knockdown): 0.25 µM
Cc1c(-c2ccc(N3CCCCC3)cc2)[nH]c2ccccc2c1=O  IC50 (bacterial growth, microplate alamarBlue; H37Rv; aerobic): 1570 ± 30 nM
Nc1c(C(=O)Nc2cccnc2)sc2nc(-c3ccccc3)cc(C(F)(F)F)c12  IC50 (growth inhibition; H37Rv LepB under-expressing): > 100000 nM
C[C@H](N)C(=O)OCc1cc2[nH]c(=S)n(Cc3cncnc3)c(=O)c2cc1Cl  MIC90 (PptT conditional knockdown): 0.29 µM (≈ 0.118 µg/mL)
CC(C)(O)c1ccc(OCCc2cccc(F)c2)c(C(N)=O)c1  selectivity index (H37Rv-LP; relative to: HepG2 CC50 over Mtb IC90): > 3
Nc1c(C(=O)NC23CC4CC(CC(C4)C2)C3)sc2nc(-c3ccc4c(c3)OCO4)cc(C(F)(F)F)c12  IC50 (growth inhibition; H37Rv LepB under-expressing): 270 ± 100 nM
O=c1c2cc(Cl)ccc2[nH]c(=S)n1CCc1cccnc1  MIC90 (PptT conditional knockdown): > 100 µM
CNC(=O)c1cc(-c2ccoc2)ccc1OCCc1cccc(F)c1  IC90 (growth; H37Rv-LP; 120 h): 850 ± 700 nM
O=c1c2cc(Cl)ccc2[nH]c(=S)n1Cc1ccc(-n2cccn2)nc1  MIC90 (PptT conditional knockdown): 1.08 µM (≈ 0.399 µg/mL)
CNC(=O)c1cc(C)ccc1OCCc1ccc(Br)cc1  selectivity index (H37Rv-LP; relative to: HepG2 CC50 over Mtb IC90): 45
Nc1c(C(=O)NCc2ccc(F)cc2)sc2ncccc12  IC50 (growth inhibition; H37Rv LepB under-expressing): > 100000 nM
NC(=O)c1cc(-c2ccsc2)ccc1OCCc1cccc(F)c1  selectivity index (H37Rv-LP; relative to: HepG2 CC50 over Mtb IC90): 86
Cc1cccc(NC(=O)c2sc3nc(-c4cccs4)cc(C(F)(F)F)c3c2N)c1C  IC50 (growth inhibition; H37Rv LepB under-expressing): > 100000 nM
O=c1c2cc(Cl)ccc2[nH]c(=S)n1Cc1ccccn1  MIC90 (PptT conditional knockdown): > 100 µM

For quick reference, copied from above:
O=c1c2cc(Cl)ccc2[nH]c(=S)n1Cc1ccc(-c2nnn[nH]2)nc1  MIC90 (PptT conditional knockdown): 3.6 µM (≈ 1.34 µg/mL)
COc1ccc(-c2cc(C(F)(F)F)c3c(N)c(C(=O)N4C5CCCC4COC5)sc3n2)cc1  IC50 (growth inhibition; H37Rv LepB under-expressing): > 100000 nM
